Experimental data pooled from the literature.
Every numbered part comes from another study and shows a few of its results, in no order.
UniProt P11362, sequence (whole entry, looked up): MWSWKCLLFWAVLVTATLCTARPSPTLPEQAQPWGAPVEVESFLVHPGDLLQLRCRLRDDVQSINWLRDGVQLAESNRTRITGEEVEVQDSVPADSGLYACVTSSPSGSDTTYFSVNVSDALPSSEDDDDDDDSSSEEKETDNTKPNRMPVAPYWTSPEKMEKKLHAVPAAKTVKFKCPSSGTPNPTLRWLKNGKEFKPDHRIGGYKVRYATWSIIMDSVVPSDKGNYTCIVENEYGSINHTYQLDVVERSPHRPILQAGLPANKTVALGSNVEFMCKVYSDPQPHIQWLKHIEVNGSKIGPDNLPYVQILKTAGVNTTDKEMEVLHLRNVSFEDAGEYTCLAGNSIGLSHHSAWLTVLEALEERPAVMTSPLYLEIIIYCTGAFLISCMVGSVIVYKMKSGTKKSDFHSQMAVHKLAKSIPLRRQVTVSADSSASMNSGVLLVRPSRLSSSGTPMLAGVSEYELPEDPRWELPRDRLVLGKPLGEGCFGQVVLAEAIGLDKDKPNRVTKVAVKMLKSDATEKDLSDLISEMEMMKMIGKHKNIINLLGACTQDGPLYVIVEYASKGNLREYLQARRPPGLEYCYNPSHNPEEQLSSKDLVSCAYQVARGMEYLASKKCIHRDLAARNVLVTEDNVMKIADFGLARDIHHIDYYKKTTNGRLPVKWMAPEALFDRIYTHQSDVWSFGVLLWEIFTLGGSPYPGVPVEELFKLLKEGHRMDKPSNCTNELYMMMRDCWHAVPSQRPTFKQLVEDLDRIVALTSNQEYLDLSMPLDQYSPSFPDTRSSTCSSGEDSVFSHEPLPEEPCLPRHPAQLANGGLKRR
UniProt Q9UM73, sequence (whole entry, unmodified, looked up): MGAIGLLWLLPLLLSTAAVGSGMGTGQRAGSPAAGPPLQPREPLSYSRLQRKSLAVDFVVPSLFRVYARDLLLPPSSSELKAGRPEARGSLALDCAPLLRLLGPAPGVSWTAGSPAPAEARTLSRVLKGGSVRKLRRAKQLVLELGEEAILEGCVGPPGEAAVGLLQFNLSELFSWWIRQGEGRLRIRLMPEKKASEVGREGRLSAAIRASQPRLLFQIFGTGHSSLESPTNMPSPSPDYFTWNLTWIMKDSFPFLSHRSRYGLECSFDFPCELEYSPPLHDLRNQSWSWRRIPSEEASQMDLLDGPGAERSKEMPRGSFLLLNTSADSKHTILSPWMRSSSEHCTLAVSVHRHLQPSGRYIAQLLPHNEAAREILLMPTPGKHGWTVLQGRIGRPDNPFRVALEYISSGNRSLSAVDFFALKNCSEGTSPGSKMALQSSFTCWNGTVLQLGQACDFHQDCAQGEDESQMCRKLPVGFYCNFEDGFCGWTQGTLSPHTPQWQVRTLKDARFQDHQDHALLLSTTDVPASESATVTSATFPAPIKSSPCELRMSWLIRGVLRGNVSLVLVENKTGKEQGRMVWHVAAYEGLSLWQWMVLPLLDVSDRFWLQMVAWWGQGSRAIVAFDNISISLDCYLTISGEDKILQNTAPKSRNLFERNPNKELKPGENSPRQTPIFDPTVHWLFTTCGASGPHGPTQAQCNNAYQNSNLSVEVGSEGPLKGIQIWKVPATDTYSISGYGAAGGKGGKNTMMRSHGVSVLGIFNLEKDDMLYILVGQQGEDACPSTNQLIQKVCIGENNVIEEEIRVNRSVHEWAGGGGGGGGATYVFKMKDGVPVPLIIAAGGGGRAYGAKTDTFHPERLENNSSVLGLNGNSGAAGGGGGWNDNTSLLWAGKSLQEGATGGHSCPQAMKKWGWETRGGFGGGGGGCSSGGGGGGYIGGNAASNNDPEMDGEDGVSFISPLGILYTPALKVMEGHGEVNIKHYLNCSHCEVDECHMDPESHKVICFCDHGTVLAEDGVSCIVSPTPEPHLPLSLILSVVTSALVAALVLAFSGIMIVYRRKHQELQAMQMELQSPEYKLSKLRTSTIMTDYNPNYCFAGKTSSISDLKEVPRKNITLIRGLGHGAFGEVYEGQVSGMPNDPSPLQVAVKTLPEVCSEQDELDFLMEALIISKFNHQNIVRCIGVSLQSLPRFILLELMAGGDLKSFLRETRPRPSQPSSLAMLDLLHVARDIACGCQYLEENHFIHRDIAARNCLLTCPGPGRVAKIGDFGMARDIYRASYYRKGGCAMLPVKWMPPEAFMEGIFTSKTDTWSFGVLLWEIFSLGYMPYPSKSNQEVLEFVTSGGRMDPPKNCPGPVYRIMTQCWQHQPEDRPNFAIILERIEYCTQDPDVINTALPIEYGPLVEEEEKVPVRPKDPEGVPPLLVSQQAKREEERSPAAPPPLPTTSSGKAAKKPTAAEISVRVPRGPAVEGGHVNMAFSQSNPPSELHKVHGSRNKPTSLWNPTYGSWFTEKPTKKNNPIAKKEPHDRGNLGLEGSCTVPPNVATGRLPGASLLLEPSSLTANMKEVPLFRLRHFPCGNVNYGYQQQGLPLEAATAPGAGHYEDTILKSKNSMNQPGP
UniProt Q6P3R8, sequence (whole entry, looked up): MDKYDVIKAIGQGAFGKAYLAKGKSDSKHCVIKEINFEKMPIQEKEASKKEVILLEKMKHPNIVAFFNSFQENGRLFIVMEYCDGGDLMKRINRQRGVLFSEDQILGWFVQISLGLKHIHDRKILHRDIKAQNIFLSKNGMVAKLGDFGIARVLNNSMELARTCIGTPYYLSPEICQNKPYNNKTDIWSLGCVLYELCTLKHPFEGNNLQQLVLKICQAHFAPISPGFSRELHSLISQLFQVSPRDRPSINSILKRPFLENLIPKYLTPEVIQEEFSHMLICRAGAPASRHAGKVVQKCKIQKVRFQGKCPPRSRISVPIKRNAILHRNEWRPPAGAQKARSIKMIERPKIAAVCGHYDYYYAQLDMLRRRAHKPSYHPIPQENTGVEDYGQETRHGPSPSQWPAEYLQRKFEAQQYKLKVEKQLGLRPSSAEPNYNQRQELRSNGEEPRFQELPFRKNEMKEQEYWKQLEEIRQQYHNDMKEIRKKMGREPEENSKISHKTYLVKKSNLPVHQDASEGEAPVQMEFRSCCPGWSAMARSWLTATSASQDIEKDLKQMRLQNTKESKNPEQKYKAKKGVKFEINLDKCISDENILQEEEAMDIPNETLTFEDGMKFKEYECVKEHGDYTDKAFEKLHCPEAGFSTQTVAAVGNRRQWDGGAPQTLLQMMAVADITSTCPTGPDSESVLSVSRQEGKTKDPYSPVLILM

Sample 1
Cell line: HEK-293T-ACE2-TMPRSS2
Method: cell count
Concentration: 10 µM
SMILES	viability [%]
CC(=O)NC(c1ccc(C)cc1)c1ccc2cccnc2c1O (stereo not shown)	75
CCc1ccc2nc(C)c(CN3CCCC3)c(O)c2c1	111
CSc1ccc(CN2CC[C@@H](N3CCN(c4ccccc4F)CC3)[C@H](O)C2)cc1	95
Cc1cc(=O)[nH]c(CCNC(=O)[C@@H](O)c2ccccc2)n1	65
CCOC(=O)c1ccc(Nc2nc3nonc3nc2Nc2cccc(C)c2C)cc1	66
COc1ccc(CCN2CC(NCc3nc(C)c(C)nc3C)CC2=O)cc1 (stereo not shown)	111
Cc1c(-c2ccnc(N3CCN(C)CC3)n2)cnc2nc(-c3ccccc3)nn12	104
O=C(c1ccncc1F)N1CC(F)(F)C[C@H]1c1nc(C2CC2)no1	107
CC[C@@]1(O)C(=O)OCc2c1cc1n(c2=O)Cc2cc3cc(O)ccc3nc2-1	103
COc1cccc(NC(=O)CCC2CCN(C(=O)C(C)n3cncn3)CC2)c1 (stereo not shown)	104
CCN(CC)Cc1c(O)ccc2cc(-c3ccc(Cl)cc3)c(=O)oc12	76
O=C(c1ccc(-c2ccnc3[nH]ccc23)o1)N1CCCCC1	65
CCN(CCn1cccn1)C(=O)c1ccc(OC2CCN(C(=O)C3CC3)CC2)cc1	109
Cn1nccc1C(=O)N1C[C@@H](COCC2CC2)[C@H](c2ccncc2)C1	104
COCc1noc([C@@H]2CN(C3CCN(CC(C)C)CC3)C[C@H]2CO)n1	98
O=C(c1ccc2nc(C3CCCCC3)oc2c1)N1CCN(c2ccccn2)CC1	111
Cc1cc(C(=O)NC2CC(=O)N(Cc3ccccc3Cl)C2)nc(C)n1 (stereo not shown)	96
C=C(C)COc1ccc(C(=O)N2CCOCC2CCC)cc1 (stereo not shown)	65
CC1CN(S(=O)(=O)N2CC=C(c3c[nH]c4ncccc34)CC2)CC(C)O1 (stereo not shown)	105
COC[C@@H]1CN(C(=O)c2ccc3ncccc3c2)C[C@H]1c1ccncc1	112
CC(c1cccs1)N(C)C(=O)c1ccc(OC2CCN(Cc3ccccn3)CC2)cc1 (stereo not shown)	111
Cc1noc(C)c1CC(=O)N1CCC(CCC(=O)NCc2cccnc2)CC1	101
COCCc1nc2ccc(C(=O)N3CCCC3c3nc4ccc(C)cc4[nH]3)cc2o1 (stereo not shown)	111
Cc1nc2cc(-c3cccc4ccnn34)ccc2s1	104
O=C(CC(c1ccccc1)c1ccccc1F)N1CCCC1 (stereo not shown)	104

Sample 2
Compound: Cn1cncc1[C@@](O)(COc1ccc(C#N)cc1-c1ccc(OC(F)(F)F)cc1)c1ccc(C#N)cc1
Concentration: 1 µM
target	assay	remaining binding [%]
MAP2K4 (Homo sapiens, UniProt P45985)	cell-free assay, competition with immobilised ligand	100
Receptor-type tyrosine-protein kinase FLT3, autoinhibited (FLT3, Homo sapiens, UniProt P36888)	cell-free assay, competition with immobilised ligand	100
ALK (Homo sapiens, UniProt Q9UM73, C1156Y)	cell-free assay, competition with immobilised ligand	98
CDK19 (Homo sapiens, UniProt Q9BWU1)	competition binding	64
EPHA6 (Homo sapiens, UniProt Q9UF33)	cell-free assay, competition with immobilised ligand	3
TGFBR2 (Homo sapiens, UniProt P37173)	cell-free assay, competition with immobilised ligand	96
NEK5 (Homo sapiens, UniProt Q6P3R8)	cell-free assay, competition with immobilised ligand	98
GRK3 (Homo sapiens, UniProt P35626)	cell-free assay, competition with immobilised ligand	100
NUAK2 (Homo sapiens, UniProt Q9H093)	cell-free assay, competition with immobilised ligand	100
PAK3 (Homo sapiens, UniProt O75914)	cell-free assay, competition with immobilised ligand	91
PRKD1 (Homo sapiens, UniProt Q15139)	cell-free assay, competition with immobilised ligand	98
AXL (Homo sapiens, UniProt P30530)	cell-free assay, competition with immobilised ligand	100
CDK15 (Homo sapiens, UniProt Q96Q40)	cell-free assay, competition with immobilised ligand	100
EPHA3 (Homo sapiens, UniProt P29320)	cell-free assay, competition with immobilised ligand	100
FGFR1 (Homo sapiens, UniProt P11362)	cell-free assay, competition with immobilised ligand	100
Non-receptor tyrosine-protein kinase TYK2, JH1 (TYK2, Homo sapiens, UniProt P29597)	cell-free assay, competition with immobilised ligand	92
MET (Homo sapiens, UniProt P08581, M1250T)	cell-free assay, competition with immobilised ligand	97

Sample 3
Cell line: HEK-293T/ACE2
Observed: pseudovirus infection
Method: counter-screen
Organism: VSV pseudotyped with VSV-G
Concentration: 10 µM
Time: 16 h
Relative to: vehicle-treated
Structure (SMILES)	GFP-positive cells
CCOc1nc2cccc(C(=O)OC(C)OC(=O)OC3CCCCC3)c2n1Cc1ccc(-c2ccccc2-c2nnn[nH]2)cc1 (stereo not shown)	3.44%
COc1ccc(OC)c(C(O)CNC(=O)CN)c1 (stereo not shown)	115%
O=c1ccn([C@@H]2O[C@H](CO)[C@@H](O)[C@H]2O)c(=O)[nH]1	99.9%
Cc1cccc(C)c1OCC(=O)N[C@@H](Cc1ccccc1)[C@@H](O)C[C@H](Cc1ccccc1)NC(=O)[C@H](C(C)C)N1CCCNC1=O	95%
CC(C)(C)NCC(O)c1cc(O)cc(O)c1 (stereo not shown)	105%
CN(C)CC(c1ccc(O)cc1)C1(O)CCCCC1 (stereo not shown)	119%
Nc1nc2c(ncn2CCC(CO)CO)c(=O)[nH]1	104%
CN(C)c1cc(NC(=O)CNC(C)(C)C)c(O)c2c1C[C@H]1C[C@H]3[C@H](N(C)C)C(O)=C(C(N)=O)C(=O)[C@@]3(O)C(O)=C1C2=O	108%
Cc1ccccc1N1C(=O)c2cc(S(N)(=O)=O)c(Cl)cc2NC1C (stereo not shown)	118%
CC(=O)N(O)CCCCCNC(=O)CCC(=O)N(O)CCCCCNC(=O)CCC(=O)N(O)CCCCCN	103%
CC(C)c1ccc2oc3nc(N)c(C(=O)O)cc3c(=O)c2c1	88.1%
C[C@]12CCC(=O)C=C1CC[C@@H]1[C@@H]2[C@@H](O)C[C@@]2(C)[C@H]1CC[C@]2(O)C(=O)CO	110%
O=C1[C@H](CC[C@H](O)c2ccc(F)cc2)[C@@H](c2ccc(O)cc2)N1c1ccc(F)cc1	98.2%
C#C[C@]1(O)CC[C@H]2[C@@H]3CCC4=CC(=O)CC[C@@H]4[C@H]3CC[C@@]21C	102%

Sample 4
Target: Leukocyte tyrosine kinase receptor (LTK, Homo sapiens, UniProt P29376)
UniProt P29376, sequence (whole entry, looked up): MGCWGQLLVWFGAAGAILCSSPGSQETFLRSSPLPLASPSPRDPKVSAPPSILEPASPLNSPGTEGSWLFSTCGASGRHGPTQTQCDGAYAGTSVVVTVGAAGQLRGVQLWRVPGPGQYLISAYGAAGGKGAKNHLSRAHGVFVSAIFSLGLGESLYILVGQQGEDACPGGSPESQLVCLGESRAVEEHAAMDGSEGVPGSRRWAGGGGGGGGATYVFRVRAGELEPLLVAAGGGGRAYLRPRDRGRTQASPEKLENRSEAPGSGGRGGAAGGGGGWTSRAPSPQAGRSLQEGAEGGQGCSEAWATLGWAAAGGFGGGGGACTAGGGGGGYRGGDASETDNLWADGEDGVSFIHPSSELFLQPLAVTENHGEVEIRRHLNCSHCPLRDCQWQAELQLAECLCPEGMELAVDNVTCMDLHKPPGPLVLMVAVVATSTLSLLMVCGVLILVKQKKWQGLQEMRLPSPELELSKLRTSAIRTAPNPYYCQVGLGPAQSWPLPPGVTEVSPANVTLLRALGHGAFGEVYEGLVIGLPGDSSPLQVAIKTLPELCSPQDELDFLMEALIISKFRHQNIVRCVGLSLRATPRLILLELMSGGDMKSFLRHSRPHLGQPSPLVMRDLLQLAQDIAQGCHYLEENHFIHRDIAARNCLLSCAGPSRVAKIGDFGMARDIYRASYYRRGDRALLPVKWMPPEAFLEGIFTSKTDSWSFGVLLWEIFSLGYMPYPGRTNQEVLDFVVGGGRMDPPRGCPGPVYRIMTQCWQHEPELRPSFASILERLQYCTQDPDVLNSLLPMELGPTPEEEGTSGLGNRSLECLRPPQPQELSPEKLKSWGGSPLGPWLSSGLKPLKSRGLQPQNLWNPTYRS
Observed: enzyme activity
Mode: inhibitor
Method: radiometric
Concentration: 0.5 µM
SMILES	remaining activity
O=C1Nc2ccccc2/C1=C\c1c(Cl)[nH]c2ccccc12	95.1%
O=C1NC(=O)c2c1c1c3ccccc3[nH]c1c1[nH]c3cc(Br)ccc3c21	89.9%
N#Cc1cnc2cnc(NCc3cccnc3)cc2c1Nc1ccc(F)c(Cl)c1	95.6%
CCCCc1c(-c2ccc(OC)cc2)[nH]c2nccnc12	83.9%
O=C(c1cc2cc(O)ccc2[nH]1)c1cc2cc(O)ccc2[nH]1	91.6%
